Assay results gathered from unrelated publications.
A part holds a random share of what one study measured.

Block 1
Target: RNA binding protein fox-1 homolog 2, RRM domain, GST-SBP tag (RBFOX2, Homo sapiens, UniProt O43251-10, residues 100-194)
Method: RNA Bind-n-Seq
Molecule type: RNA
Sample: in vitro
Concentration: 365 nM
Notes: natural RNA segment, single round, ends assumed
Reference: no-protein control
Direction: higher = stronger binding
Constant ends, left off below: GGGAGUUCUACAGUCCGACGAUC … UGGAAUUCUCGGGUGCCAA
Residues (chain): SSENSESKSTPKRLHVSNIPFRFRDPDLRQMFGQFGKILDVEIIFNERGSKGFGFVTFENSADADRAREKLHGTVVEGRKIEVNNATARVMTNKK
Strand | RBNS enrichment (R)
UGCCUUUUUUCUUUCUUUUCUUGGGGGGAUGGGAUAAAUGGGAUAUUUUUUAAAGAAUAAAUCCCGCAUGUGAAAGUUUAUGAAGGUUACUAGCAGGUUCUUUUUAAAAG | 6.83
CUGUCCCCUUCGACCCUCAGCCCUCUGGUGCCGCUCUGCCCGAUGCACAGCCACCUCAGCCAGCCCCCAGGUAGAAACGUGGGUUAAGCUCUUCCUGCCCCGUUCAGCUU | 0.333
AUGUGGCUCAGCAGCAAGAAAGGCAAGUUGCUCCUGCUGGGGCCCUGGACUCUGCCUUAGCUCCCACCUCUCAGCCUUGUUAUUGGGUUUCAUGCCCCUGGACCAGCCUU | 0.854
GUCGGGAACACAGCCGCUCCCCUCUGCUCUGCACCCCACUCGUGGGGGAACACAGCCGCUCCCCUCUGCUCUGCACCCCACUCGUGGGGGAACACAGCCGCUCCCCUCUG | 0.336
UGUCUGGUGGGGACGCAGUGGCCCUGGACACGGCUCCCCUCUGCAGGUCUGCAGGUCGGUUUGCUGCCUGCCCUCCUCCUCUCACCCGAUGUCCAGGUGGGAUUUUAAAG | 0.362
CUCCAGAGAGAGGACCCUGCCCAUCCUCCUUUUGAAGCCAGGACUUAUUCUUGGUUCAUCAUACUCCAGACCAUGUAUCCUCUGGUGUCCUGGCUGGAAGAAGGGGCGUG | 0.335
GAGAAACCCAUUCCACAUUAACAAAUUUAUUACAGUACAGGGAACAUGGAAUAAAGGAAAGUUUACUCUUCUGAUUAUAAGCUGAGGAUGCUAUGUUGCAGUUUGUUUGC | 1.43
CACGGAGAGGCAGGUGUGGCGUAAGGCCUCACUCCCGGCUGGGAAGGUCUCUGAUCACACAGAAGCAGCCCUGCCCAGCCUGGUCAUUUGCUGUCCGCUUUUCUCUGUGA | 0.345

Block 2
Target: Sal-like protein 4, full length isoform A (SALL4, Homo sapiens, UniProt Q9UJQ4, residues 1-1053)
Chain of UniProt Q9UJQ4 (whole entry, looked up): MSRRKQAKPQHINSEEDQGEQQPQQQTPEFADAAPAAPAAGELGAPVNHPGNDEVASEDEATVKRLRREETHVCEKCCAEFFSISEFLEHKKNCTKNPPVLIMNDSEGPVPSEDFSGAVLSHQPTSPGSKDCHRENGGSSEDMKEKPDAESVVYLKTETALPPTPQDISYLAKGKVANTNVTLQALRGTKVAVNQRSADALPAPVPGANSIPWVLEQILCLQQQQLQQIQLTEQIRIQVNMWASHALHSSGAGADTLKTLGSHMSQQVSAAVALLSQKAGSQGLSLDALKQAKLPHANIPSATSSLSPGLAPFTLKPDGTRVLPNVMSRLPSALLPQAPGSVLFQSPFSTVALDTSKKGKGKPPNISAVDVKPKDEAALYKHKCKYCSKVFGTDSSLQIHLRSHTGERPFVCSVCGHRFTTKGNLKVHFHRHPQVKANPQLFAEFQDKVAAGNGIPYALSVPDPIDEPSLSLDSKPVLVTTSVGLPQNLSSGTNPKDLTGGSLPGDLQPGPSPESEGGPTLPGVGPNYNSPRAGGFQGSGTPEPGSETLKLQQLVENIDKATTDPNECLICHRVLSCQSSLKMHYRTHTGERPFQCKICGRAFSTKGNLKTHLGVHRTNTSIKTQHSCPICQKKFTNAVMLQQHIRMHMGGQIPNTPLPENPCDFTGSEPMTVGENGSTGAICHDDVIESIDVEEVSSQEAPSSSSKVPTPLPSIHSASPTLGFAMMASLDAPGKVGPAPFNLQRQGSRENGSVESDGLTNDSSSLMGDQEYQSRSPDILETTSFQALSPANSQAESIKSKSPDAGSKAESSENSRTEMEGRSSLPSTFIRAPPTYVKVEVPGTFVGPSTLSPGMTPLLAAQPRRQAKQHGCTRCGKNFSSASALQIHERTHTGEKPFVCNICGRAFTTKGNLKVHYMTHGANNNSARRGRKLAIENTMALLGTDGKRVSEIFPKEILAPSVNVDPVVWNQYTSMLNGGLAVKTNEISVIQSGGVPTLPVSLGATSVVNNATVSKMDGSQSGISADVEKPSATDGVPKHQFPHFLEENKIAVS
Method: universal PBM
Molecule type: double-stranded DNA, one strand shown
Sample: in vitro
Concentration: 600 nM
Notes: 8-mer, flanks averaged, mean of replicates
Direction: higher = stronger binding
Strand | E-score
ATCCCTCC | -0.0639
AGGGACAT | 0.0282
CAATCCGG | -0.171
GAACTCGA | -0.112
GATAACCC | -0.0889
GTGTCGGA | -0.154
AGATTTGG | -0.00319
ATTTAGTG | 0.267
CTGACAGC | -0.252
TCCGCCGA | -0.215
ATTGCCTC | 0.0696
GCTAGTCC | -0.163
ATCGAGAA | 0.139
ATATCCGA | 0.227
GATCGGCC | -0.225
GATACGAC | 0.0435
AACTGTAG | 0.0256
ATCGTTTG | 0.134
ATCGATCG | -0.021
GAATTGTC | 0.0187
GGCCCCCC | -0.438

Block 3
Target: TAR DNA-binding protein 43, full length, His tag (TARDBP, Homo sapiens, UniProt Q13148, residues 1-414)
Method: RNA Bind-n-Seq
Molecule type: RNA
Sample: in vitro
Concentration: 20 nM
Notes: 6-mer, flanks averaged, single round
Together with: 150 mM LiCl
Reference: input library
Direction: higher = stronger binding
Strand | 6-mer enrichment (R)
AGAGUC | 0.861
AAAUCG | 0.832
CGUGGU | 1.13
UCCCAU | 0.994
UGCCUU | 1.12
CUACGU | 0.882
CGUCAG | 0.886
CGCUGC | 0.918
UACAGU | 0.877
AUCACG | 0.814
GACCUC | 0.848
AAGAGG | 1.04
AAUAGG | 0.971
AAGUUG | 1.02
AGUCAU | 0.837
GCCCAG | 0.973
AUUUGU | 1.22
UUCCCG | 0.935
CAGCAU | 0.87
CGGGUU | 0.991
GUUAAG | 1.03
CGAUCA | 0.799
GGGCCU | 1.08
UAUAUU | 1.11
UCAAGC | 0.823

Block 4
Target: Histone acetyltransferase KAT6A, winged helix 2, GST fusion (KAT6A, Homo sapiens, UniProt Q92794, residues 85-181)
Method: protein binding microarray
Molecule type: double-stranded DNA, one strand shown
Sample: in vitro
Concentration: not given
Notes: 8-mer, flanks averaged, mean of 2 arrays, mostly near background
Reference: not given
Direction: higher = stronger binding
Target sequence (chain): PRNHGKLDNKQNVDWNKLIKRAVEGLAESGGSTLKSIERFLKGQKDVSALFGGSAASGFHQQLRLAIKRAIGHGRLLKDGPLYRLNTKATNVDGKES
Strand | E-score
AATAAGGC | -0.105
ATGGATTA | -0.0336
TGAGGCCA | 0.102
ACGTGCTA | -0.178
GGAGAGAC | 0.0186
AGGGAATG | -0.0131
CTCATCCA | -0.00911
TCACGTGA | -0.17
ATCGTGCG | 0.117
ATATTCTA | -0.0306
AACCCCTA | -0.225
AGCTCAAG | -0.136
AGTCAAAT | -0.0619
GGGCGAAC | 0.16
CGTACCTC | -0.103
CGATAGCG | -0.0641
AGGAGGAG | 0.0492
AATTCCTG | -0.218
TAGCTCCA | 0.109
ATCCGTCA | -0.126

Block 5
Target: Phosphate system positive regulatory protein PHO4, full length, GST-tagged (PHO4, Saccharomyces cerevisiae, UniProt P07270, residues 1-312)
Method: competition protein-binding microarray
Molecule type: double-stranded DNA, one strand shown
Sample: in vitro
Concentration: 2 µM
Notes: whole 60-bp probe, lowest competitor level
Together with: Cbf1 competitor, 0.05 µM
Direction: higher = stronger binding
Constant ends, left off below: … GTCTTGATTCGCTTGACGCTGCTG
Construct (chain): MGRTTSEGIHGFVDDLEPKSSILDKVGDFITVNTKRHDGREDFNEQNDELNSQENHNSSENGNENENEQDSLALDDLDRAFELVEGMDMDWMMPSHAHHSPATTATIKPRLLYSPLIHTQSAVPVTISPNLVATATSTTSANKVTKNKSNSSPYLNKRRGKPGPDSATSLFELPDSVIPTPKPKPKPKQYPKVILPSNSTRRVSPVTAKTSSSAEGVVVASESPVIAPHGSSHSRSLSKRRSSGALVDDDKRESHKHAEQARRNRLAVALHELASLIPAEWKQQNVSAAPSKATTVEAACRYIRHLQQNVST
Strand | fluorescence intensity [a.u.]
CTTCTGTAAATTTGAAGAGTGGGTGGACGCGCCCCG | 4000
GACATCAAATGCAAGCACATGAAGCTGGAACTTCGC | 6330
GCTCAGGAGCCCTGACTCGTGTTGGCTCGAGTAAAC | 7000
TTATTTTTTCAGTCGCTCGTGGTCGATCGCCAACTT | 7700
ACCGCAGCACCGTTTCACATGTCCGTCTCTTTTGTT | 6900
TTGACAGTCCCTGGACATGTGGCCAGCTTTACCACA | 11100
GTCTTGTCTCATTGCTACGTGGGTGTCCCCACTTCA | 7890
GAGACGCTTAAGCGACACGTGCCTGGCTTCTGCAGC | 14700
AAATTACTAAGTTGTGCCGTGGGTGACGCCGTATGA | 6020
TGCGCAACAACTTGAGATGTGGGTGTATGTCTAGAA | 4750
AAAGCGGTAATTTGTAACGTGGGTGCAGATATCTAT | 9970
CTTGTATATATAAATGTCGTGATGGTTCTATGCCAA | 4090
GAAGATCCAAGCCTGCACCTGACGGGTTCGAAAAAA | 4360
GTTTCTTCCTCTGGATACGTGGGACAGCTTGATGCT | 6240
CAATAGCCGGGCTGGCACGCTACTAGAAGGCGGTTC | 6030
GGATAATTTTCAGGACACGTGTTTCGAAAGGTTTGT | 19600
CATACCCAACCTTGTAACGTGGGTGAAGATATTTGT | 10400

For quick reference, copied from above (block 5):
Strand | fluorescence intensity [a.u.]
CTTGTATATATAAATGTCGTGATGGTTCTATGCCAA | 4090
GGATAATTTTCAGGACACGTGTTTCGAAAGGTTTGT | 19600
AAAGCGGTAATTTGTAACGTGGGTGCAGATATCTAT | 9970
CTTCTGTAAATTTGAAGAGTGGGTGGACGCGCCCCG | 4000
GTCTTGTCTCATTGCTACGTGGGTGTCCCCACTTCA | 7890
GAGACGCTTAAGCGACACGTGCCTGGCTTCTGCAGC | 14700
CAATAGCCGGGCTGGCACGCTACTAGAAGGCGGTTC | 6030
ACCGCAGCACCGTTTCACATGTCCGTCTCTTTTGTT | 6900
TGCGCAACAACTTGAGATGTGGGTGTATGTCTAGAA | 4750
GAAGATCCAAGCCTGCACCTGACGGGTTCGAAAAAA | 4360
GACATCAAATGCAAGCACATGAAGCTGGAACTTCGC | 6330
